Assay results of several laboratories.
Each line is one published result; not all experiments were run side by side. Numbers after ± are the reported error.
CYP2E1: Cytochrome P450 2E1 (CYP2E1, Homo sapiens, UniProt P05181)
Sequence of UniProt P05181 (whole entry, looked up): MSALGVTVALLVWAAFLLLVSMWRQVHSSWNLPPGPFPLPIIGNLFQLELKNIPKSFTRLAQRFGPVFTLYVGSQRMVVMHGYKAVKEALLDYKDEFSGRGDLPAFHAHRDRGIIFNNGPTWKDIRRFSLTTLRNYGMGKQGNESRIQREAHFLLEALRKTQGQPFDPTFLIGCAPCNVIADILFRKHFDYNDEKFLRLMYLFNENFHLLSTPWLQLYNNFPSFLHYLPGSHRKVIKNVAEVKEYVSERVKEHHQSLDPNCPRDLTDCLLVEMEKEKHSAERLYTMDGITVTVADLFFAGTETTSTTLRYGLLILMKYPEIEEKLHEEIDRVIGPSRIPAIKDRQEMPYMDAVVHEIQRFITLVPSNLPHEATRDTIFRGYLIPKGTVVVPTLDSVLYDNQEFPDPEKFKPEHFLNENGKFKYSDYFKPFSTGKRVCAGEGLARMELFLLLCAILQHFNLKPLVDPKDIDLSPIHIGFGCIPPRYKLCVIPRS
Abcb1a: ATP-dependent translocase ABCB1 (Abcb1a, Mus musculus, UniProt P21447)
Sequence of UniProt P21447 (whole entry, looked up): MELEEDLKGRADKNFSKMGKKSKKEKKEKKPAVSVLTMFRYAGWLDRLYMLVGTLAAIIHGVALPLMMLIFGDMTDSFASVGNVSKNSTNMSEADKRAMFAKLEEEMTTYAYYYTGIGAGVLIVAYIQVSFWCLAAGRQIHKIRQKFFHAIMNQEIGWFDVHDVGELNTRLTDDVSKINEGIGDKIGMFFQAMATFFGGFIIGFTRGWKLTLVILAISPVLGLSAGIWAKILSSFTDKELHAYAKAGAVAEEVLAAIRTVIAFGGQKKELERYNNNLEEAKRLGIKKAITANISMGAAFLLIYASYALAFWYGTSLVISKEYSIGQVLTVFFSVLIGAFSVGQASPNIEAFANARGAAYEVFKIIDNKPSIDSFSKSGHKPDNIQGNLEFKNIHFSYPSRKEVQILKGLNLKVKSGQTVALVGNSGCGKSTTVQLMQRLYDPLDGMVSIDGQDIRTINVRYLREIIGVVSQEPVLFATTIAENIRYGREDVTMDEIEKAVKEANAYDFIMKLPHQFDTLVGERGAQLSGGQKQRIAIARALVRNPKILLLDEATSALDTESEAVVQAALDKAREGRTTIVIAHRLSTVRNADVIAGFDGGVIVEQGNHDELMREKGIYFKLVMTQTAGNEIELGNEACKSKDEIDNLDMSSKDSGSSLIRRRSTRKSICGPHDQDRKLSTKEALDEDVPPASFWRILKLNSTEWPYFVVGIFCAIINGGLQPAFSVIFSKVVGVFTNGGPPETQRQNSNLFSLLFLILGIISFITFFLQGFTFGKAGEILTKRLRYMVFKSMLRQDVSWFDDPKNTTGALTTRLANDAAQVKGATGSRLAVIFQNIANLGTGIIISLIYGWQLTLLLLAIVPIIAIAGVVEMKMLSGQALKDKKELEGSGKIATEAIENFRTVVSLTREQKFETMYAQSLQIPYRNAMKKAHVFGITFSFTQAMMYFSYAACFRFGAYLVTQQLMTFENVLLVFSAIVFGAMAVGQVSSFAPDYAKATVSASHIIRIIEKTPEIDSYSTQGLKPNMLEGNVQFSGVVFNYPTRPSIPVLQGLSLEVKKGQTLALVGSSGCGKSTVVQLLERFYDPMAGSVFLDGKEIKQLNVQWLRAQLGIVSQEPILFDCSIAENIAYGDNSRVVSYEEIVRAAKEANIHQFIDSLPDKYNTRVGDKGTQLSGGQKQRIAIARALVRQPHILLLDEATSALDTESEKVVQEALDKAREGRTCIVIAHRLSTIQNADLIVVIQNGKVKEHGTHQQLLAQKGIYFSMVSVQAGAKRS
CYP1A2: Cytochrome P450 1A2 (CYP1A2, Homo sapiens, UniProt P05177)
Sequence of UniProt P05177 (whole entry, looked up): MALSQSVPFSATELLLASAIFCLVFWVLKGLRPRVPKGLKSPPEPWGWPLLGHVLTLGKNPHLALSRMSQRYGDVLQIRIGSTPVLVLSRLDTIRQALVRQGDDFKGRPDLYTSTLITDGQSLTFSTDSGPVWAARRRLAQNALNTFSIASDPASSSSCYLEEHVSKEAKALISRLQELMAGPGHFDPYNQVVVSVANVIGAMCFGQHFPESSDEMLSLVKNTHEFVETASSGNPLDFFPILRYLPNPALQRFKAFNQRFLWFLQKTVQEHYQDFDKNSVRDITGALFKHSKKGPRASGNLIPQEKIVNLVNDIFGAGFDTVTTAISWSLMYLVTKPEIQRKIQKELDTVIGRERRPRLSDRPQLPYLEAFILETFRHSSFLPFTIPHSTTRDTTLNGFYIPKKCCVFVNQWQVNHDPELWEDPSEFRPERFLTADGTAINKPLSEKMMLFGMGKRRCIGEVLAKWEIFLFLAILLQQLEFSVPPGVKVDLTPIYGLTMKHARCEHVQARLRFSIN
Sequence of UniProt P43235 (whole entry, looked up): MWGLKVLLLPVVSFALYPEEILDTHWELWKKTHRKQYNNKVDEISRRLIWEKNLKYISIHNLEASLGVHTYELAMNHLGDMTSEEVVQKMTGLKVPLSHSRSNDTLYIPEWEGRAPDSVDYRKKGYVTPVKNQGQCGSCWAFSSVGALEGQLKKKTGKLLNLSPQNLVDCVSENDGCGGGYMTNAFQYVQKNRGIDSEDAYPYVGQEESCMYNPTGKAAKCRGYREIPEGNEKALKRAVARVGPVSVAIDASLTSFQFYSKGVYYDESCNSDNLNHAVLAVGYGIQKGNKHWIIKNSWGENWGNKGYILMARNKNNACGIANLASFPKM
Sequence of UniProt P34913 (whole entry, looked up): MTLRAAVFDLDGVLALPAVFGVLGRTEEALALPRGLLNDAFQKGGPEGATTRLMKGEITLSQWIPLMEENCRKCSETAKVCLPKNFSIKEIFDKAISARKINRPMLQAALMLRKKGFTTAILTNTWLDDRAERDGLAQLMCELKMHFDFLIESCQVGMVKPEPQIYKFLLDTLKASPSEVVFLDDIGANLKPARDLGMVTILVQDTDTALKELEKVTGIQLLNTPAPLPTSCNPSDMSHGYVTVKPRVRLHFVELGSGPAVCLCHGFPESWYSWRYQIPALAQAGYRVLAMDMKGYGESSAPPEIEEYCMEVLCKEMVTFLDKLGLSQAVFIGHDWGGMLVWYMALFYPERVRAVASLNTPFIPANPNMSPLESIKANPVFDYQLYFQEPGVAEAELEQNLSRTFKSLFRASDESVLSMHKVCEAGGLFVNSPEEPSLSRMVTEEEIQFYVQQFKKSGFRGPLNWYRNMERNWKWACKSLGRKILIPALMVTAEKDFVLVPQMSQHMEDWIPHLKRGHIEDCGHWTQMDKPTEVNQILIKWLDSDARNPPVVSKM
Sequence of UniProt P16257 (whole entry, looked up): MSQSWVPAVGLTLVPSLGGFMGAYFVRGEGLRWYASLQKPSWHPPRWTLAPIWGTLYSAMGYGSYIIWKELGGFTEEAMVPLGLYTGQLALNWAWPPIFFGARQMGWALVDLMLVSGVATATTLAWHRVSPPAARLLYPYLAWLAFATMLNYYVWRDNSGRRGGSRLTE
Sequence of UniProt Q3UFF7 (whole entry, looked up): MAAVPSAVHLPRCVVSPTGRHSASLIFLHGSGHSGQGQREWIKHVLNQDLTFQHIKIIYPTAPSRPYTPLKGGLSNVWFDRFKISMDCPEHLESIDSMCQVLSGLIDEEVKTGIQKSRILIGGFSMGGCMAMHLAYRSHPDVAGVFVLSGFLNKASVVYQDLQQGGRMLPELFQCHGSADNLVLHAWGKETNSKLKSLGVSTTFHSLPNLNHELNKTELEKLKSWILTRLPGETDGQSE
Sequence of UniProt O94788 (whole entry, looked up): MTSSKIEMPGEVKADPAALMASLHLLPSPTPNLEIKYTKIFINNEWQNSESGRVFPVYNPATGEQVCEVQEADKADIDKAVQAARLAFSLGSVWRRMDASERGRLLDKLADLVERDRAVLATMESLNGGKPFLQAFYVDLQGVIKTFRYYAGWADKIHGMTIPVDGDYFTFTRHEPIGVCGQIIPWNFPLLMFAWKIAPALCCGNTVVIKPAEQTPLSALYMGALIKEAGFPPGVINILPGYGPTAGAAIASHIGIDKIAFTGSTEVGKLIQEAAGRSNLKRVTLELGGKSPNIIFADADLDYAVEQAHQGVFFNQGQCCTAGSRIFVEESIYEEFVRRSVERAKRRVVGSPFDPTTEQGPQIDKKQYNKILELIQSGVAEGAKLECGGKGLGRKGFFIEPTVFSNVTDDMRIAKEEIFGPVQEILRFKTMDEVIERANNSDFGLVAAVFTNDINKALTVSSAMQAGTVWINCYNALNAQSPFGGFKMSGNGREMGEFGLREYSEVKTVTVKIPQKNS
Sequence of UniProt P08684 (whole entry, looked up): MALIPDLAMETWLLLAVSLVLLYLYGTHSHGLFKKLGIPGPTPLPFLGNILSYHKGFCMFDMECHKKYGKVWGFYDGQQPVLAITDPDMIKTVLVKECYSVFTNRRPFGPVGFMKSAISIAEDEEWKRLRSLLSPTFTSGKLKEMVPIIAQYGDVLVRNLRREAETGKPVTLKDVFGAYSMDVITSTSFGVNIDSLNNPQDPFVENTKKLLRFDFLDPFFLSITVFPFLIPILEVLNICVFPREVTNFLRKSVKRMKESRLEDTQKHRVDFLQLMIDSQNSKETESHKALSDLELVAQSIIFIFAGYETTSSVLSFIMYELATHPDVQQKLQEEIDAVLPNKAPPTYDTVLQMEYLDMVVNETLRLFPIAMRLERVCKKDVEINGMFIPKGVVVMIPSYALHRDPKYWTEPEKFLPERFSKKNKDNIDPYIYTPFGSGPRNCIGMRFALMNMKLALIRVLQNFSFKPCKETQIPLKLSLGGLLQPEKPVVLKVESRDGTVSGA

O=C(O)c1cc(Br)c(O)c(Br)c1  Ki (CYP2E1; p-nitrophenol hydroxylation, noncompetitive inhibitor, calculated from IC50; baculosomes): 1000 nM
O=C(Nc1ccc(C(F)(F)F)nc1)N1CCC(Cc2cccc(Oc3ccc(C(F)(F)F)cn3)c2)CC1  dissociation half-life (Bifunctional epoxide hydrolase 2 (EPHX2, Homo sapiens, UniProt P34913); FRET displacement): 2 min
NCCCC[C@H](NC(=O)[C@H](Cc1ccc(O)cc1)NC(=O)[C@H](CCCCN)NC(=O)[C@H](Cc1c[nH]c2ccccc12)NC(=O)[C@H](Cc1ccccc1)NC(=O)[C@H](Cc1ccccc1)NC(=O)Cc1ccc(-c2ccccc2)cc1)C(=O)NCC(=O)N[C@@H](Cc1c[nH]cn1)C(=O)N1CCC[C@H]1C(=O)NCC(=O)NCC(=O)N1CCC[C@H]1C(=O)N[C@@H](CCC(N)=O)C(=O)N[C@@H](CC(=O)O)C(=O)N[C@@H](CC(=O)O)C(=O)N[C@@H](CC(=O)O)C(=O)N[C@@H](CC(=O)O)C(=O)N[C@@H](CC(=O)O)C(=O)N[C@@H](CC(=O)O)C(=O)O  zeta potential (Cathepsin K (CTSK, Homo sapiens, UniProt P43235); Zetasizer; MES buffer; 64 µM, pH 5.5, with enzyme, after cleavage, added: CTSK 800 ng/mL): 19.6 mV
Cc1nc2ccc(S(=O)(=O)n3nc(SCc4ccc(Cl)cc4)nc3N)cc2s1  activity-based probe labelling (Lysophospholipase-like protein 1 (Mus musculus, UniProt Q3UFF7); gel-based ABPP; C57BL/6J mouse, male, kidney; intraperitoneal, 100 mg/kg, 25 min, added: LYPLAL1 alkyne probe 5 mg/kg; reference: vehicle): 1.8 fold
[64Cu+2].c1cnc(CNCc2ccc(CN3CCCN4CCNCCCN(CC4)CC3)cc2)nc1  tissue uptake (CXCR4; NOD/SCID mouse, U87 and U87-stb-CXCR4 xenografts, muscle; iv, 60 min, ex vivo): 0.4 ± 0.01 %ID/g
O=C(O)[C@@H]1C[C@@H](O)CN1C(=O)[C@@H]1CCCN1  −ΔG (iron(III) ion; complex formation, from log β; aqueous 0.15 M NaCl; 37 °C, MAH−2 complex species): 5.73 kcal/mol
CC(C)C[C@H](NC(=O)CNC(=O)[C@H](CC(C)C)NC(=O)[C@@H]1CCCN1)C(=O)N[C@@H](CCCNC(=N)N)C(=O)N[C@@H](CO)C(=O)N[C@@H](CCCCN)C(=O)O  remaining substrate (MMP-9; substrate, HPLC; 500 µM, 72 h, pH 7.5, 37 °C, added: 10 U MMP-9): 6%
CNc1c(C)n(C)n(-c2ccccc2)c1=O  N-demethylation (CYP2E1; 4-aminoantipyrine formation, substrate, recombinant supersomes; 50 µM, up to 2 h): inactive
COc1cc(-c2nc3ccccc3s2)cc(CN(C)Cc2ccccn2)c1O  log K (Zn2+; UV-vis pH titration; M2+ + L- = [ML]+ complex): 15.2
CCc1cc(C)nc2c(CC(=O)N(CC)CC)c(-c3ccc(OCC[18F])cc3)nn12  total distribution volume (Translocator protein (Tspo, Rattus norvegicus, UniProt P16257); two-tissue compartment model; rat C6 glioma model, tumor; dose not given, 60 min dynamic PET): 7.89 ± 0.764 mL/cm3
COc1cc2c(cc1OC)CN(CCCCn1ccc3cc(OCC[18F])ccc31)C2  increase in brain/blood ratio (Abcb1a; ICR mice, male; intravenous, dose not given, 2 min, added: cyclosporine A 50 mg/kg iv, 60 min before; reference: no cyclosporine A): 50%
CC(C)C[C@H](NC(=O)[C@H](CO)NC(=O)[C@H](CC(C)C)NC(=O)[C@@H]1CCCN1C(=O)CNC(=O)[C@H](Cc1ccccc1)NC(=O)OCC1c2ccccc2-c2ccccc21)C(=O)N[C@@H](CCCNC(=N)N)C(=O)N[C@@H](CO)C(=O)N[C@@H](CCCCN)C(=O)O  remaining substrate (MMP-9; substrate, HPLC; 500 µM, 72 h, pH 7.5, 37 °C, added: 10 U MMP-9): 19%
COc1cc(-c2nc3ccccc3s2)cc(CN(Cc2ccccn2)Cc2ccccn2)c1O  log K (Zn2+; UV-vis pH titration; M2+ + L- = [ML]+ complex): 16.5
C=CCc1cccc(CNc2nc3ccccc3n2CCC)c1O  EC50 (Retinal dehydrogenase 2 (ALDH1A2, Homo sapiens, UniProt O94788); enzyme activity; pH 7.5, 25 °C, added: propionaldehyde 100 µM, NAD+ 200 µM): 740 ± 210 nM
C=CC(=O)Nc1cc(Nc2nccc(-c3cn(C)c4ccccc34)n2)c(OCC(F)(F)F)nc1N(C)CCN(C)C  activity vs control (CYP1A2; enzyme activity, inhibitor; human, liver microsomes; 0.33 µM): 74.1%
CC[C@H](C)[C@@H]1NC(=O)[C@H](Cc2c[nH]c3ccccc23)NC(=O)[C@H](CCCN)NC(=O)CNC(=O)[C@H]2CCCN2C(=O)[C@H](C(C)C)NC(=O)[C@H](CCCCN)NC(=O)[C@H](C(C)C)NC(=O)[C@H](Cc2c[nH]c3ccccc23)NC(=O)[C@H](CCCNC(=N)N)NC(=O)[C@@H](NC(C)=O)CCCCn2cc(nn2)C[C@@H](C(N)=O)NC(=O)[C@H](CCC(N)=O)NC(=O)[C@H](CCCCN)NC1=O  half-life ratio (Pronase E (Streptomyces griseus); substrate; pH 7.6, 37 °C; reference: cyclic over non-cyclic peptide): ≥ 5 fold
O=C(CS(=O)(=O)Cc1ccco1)C12CC3CC(CC(C3)C1)C2  inhibition (CYP1A2; inhibitor; 10 µM): no inhibition
COc1cc(CC(O)C(=O)O)ccc1O (stereo not drawn)  demethylation (cytochrome P450 (rat); substrate; NADPH-fortified rat liver microsomes): not detected
CC(C)C[C@H](NC(=O)[C@H](CO)NC(=O)[C@H](CC(C)C)NC(=O)[C@@H]1CCCN1C(=O)OCC1c2ccccc2-c2ccccc21)C(=O)N[C@@H](CCCNC(=N)N)C(=O)N[C@@H](CO)C(=O)N[C@@H](CCCCN)C(=O)O  remaining substrate (MMP-9; substrate, HPLC; 500 µM, 72 h, pH 7.5, 37 °C, added: 10 U MMP-9): < 10%
COc1ccc2cc(NC(=O)c3cc(-c4ccncc4)nc4ccccc34)ccc2c1  Km (Cytochrome P450 3A4 (CYP3A4, Homo sapiens, UniProt P08684); substrate, LC-MS, measured: hydroxylated metabolite M2; baculosomes): 0.6 ± 0.1 µM
[64Cu+2].c1ccc(CNCc2ccc(CN3CCCN4CCNCCCN(CC4)CC3)cc2)nc1  tissue uptake (CXCR4; NOD/SCID mouse, U87 and U87-stb-CXCR4 xenografts, muscle; iv, 90 min, ex vivo, added: AMD3465 25 mg/kg sc before tracer): 0.32 ± 0.02 %ID/g
Cn1cnc(C(=O)N(Cc2ccc(F)c(OC3CCCC3)c2)C2CC3CN([11CH3])CC3C2)c1 (stereo not drawn)  brain uptake ratio (Abcb1a; mouse; added: cyclosporin A 50 mg/kg iv; reference: cyclosporin A over control): 11.7
C[C@]12CC[C@@H]3c4ccc(OCC(=O)N[C@@H](CCCCNC(=O)CN5CCN(CC(=O)[O-])CCN(CC(=O)[O-])CCN(CC(=O)[O-])CC5)C(=O)O)cc4CC[C@H]3[C@@H]1CCC2=O.[68Ga+3]  radioactivity uptake (estrogen receptor; nude mice, MCF7 xenograft, uterus; dose not given, 2.5 h post-injection, added: estradiol blocking dose): 0.71 ± 0.15 %ID/g
CC(C)C[C@H](NC(=O)CNC(=O)[C@H](CC(C)C)NC(=O)[C@@H]1CCCN1C(=O)CNC(=O)[C@H](Cc1ccccc1)NC(=O)[C@H](Cc1ccccc1)NC(=O)OCC1c2ccccc2-c2ccccc21)C(=O)N[C@@H](CCCNC(=N)N)C(=O)N[C@@H](CO)C(=O)N[C@@H](CCCCN)C(=O)O  remaining substrate (MMP-9; substrate, HPLC; 500 µM, 72 h, pH 7.5, 37 °C, added: 10 U MMP-9): 68%

Excerpt of the above:
CC(C)C[C@H](NC(=O)[C@H](CO)NC(=O)[C@H](CC(C)C)NC(=O)[C@@H]1CCCN1C(=O)OCC1c2ccccc2-c2ccccc21)C(=O)N[C@@H](CCCNC(=N)N)C(=O)N[C@@H](CO)C(=O)N[C@@H](CCCCN)C(=O)O  remaining substrate (MMP-9; substrate, HPLC; 500 µM, 72 h, pH 7.5, 37 °C, added: 10 U MMP-9): < 10%
Cc1nc2ccc(S(=O)(=O)n3nc(SCc4ccc(Cl)cc4)nc3N)cc2s1  activity-based probe labelling (Lysophospholipase-like protein 1 (Mus musculus, UniProt Q3UFF7); gel-based ABPP; C57BL/6J mouse, male, kidney; intraperitoneal, 100 mg/kg, 25 min, added: LYPLAL1 alkyne probe 5 mg/kg; reference: vehicle): 1.8 fold
